# Published values from different studies.
# Numbered parts are unrelated; each lists some results of a single study.

# Set 1
# Target: Histone acetyltransferase KAT6A, winged helix 1, GST fusion (KAT6A, Homo sapiens, UniProt Q92794, residues 1-85)
# Technique: protein binding microarray
# Form: double-stranded DNA, one strand shown
# Medium: in vitro
# Tested at: not given
# Setting: 8-mer, flanks averaged, mean of 2 arrays, mostly near background
# Relative to: not given
# Reading: higher = stronger binding
# Construct (chain): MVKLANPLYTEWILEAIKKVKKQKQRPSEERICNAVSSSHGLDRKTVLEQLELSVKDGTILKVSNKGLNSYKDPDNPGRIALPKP
Oligonucleotide,E-score
CCCCATTC,-0.1
ACTGCCAG,0.00409
CTTATTGC,-0.0779
GTCTGGTA,-0.179
CGATGGTA,0.0301
CCAAACTA,-0.124
AAGCTGAC,-0.0999

# Set 2
# Target: Sal-like protein 4, full length isoform A (SALL4, Homo sapiens, UniProt Q9UJQ4, residues 1-1053)
# Sequence of UniProt Q9UJQ4 (whole entry, looked up): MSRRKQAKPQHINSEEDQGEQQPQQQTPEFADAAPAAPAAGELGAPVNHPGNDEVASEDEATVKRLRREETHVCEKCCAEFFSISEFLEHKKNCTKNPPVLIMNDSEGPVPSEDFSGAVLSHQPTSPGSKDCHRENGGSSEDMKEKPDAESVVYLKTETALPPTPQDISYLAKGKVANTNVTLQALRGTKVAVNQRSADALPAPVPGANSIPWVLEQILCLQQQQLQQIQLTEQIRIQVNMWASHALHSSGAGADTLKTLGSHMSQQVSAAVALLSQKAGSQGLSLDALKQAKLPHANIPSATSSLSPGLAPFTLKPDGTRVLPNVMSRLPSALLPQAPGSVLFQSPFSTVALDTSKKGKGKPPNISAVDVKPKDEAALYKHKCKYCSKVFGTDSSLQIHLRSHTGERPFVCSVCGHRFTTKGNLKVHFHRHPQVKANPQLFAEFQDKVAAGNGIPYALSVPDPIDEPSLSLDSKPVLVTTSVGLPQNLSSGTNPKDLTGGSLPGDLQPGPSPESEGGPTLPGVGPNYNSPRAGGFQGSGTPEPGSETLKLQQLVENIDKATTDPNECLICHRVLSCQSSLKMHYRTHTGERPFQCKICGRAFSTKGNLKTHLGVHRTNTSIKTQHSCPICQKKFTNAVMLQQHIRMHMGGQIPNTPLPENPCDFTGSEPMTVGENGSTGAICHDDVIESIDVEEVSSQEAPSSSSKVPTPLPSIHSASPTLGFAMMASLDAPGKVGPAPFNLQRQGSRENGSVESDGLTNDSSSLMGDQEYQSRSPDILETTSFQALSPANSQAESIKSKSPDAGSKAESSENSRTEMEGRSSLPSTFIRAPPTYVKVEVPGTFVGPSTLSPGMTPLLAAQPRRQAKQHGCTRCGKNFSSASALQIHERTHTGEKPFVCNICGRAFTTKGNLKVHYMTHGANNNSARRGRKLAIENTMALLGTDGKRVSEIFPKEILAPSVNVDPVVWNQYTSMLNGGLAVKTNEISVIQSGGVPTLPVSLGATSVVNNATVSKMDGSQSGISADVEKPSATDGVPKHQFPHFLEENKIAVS
# Technique: universal PBM
# Form: double-stranded DNA, one strand shown
# Medium: in vitro
# Tested at: 600 nM
# Setting: 8-mer, flanks averaged, mean of replicates
# Reading: higher = stronger binding
Oligonucleotide,E-score
ACTGCGTC,-0.0849
ACACCAAC,-0.127
ACATAGTC,0.173
CAAATTAC,0.177
CAAGTTCC,-0.1
CACGCAGG,-0.0997
ACTGCTGG,-0.179
CCTCGACA,-0.0389
ACTGCGAC,-0.159

# Set 3
# Target: Fragile X messenger ribonucleoprotein 1, C-terminal low-complexity region (Fmr1, Mus musculus, UniProt P35922)
# Technique: RNA Bind-n-Seq
# Form: RNA
# Medium: in vitro
# Tested at: 200 nM
# Setting: whole 134-nt RNA, ends assumed
# Added: 150 mM LiCl
# Relative to: input library
# Reading: higher = stronger binding
# Library: 7-deaza-guanosine replaces G
Oligonucleotide,log2 enrichment
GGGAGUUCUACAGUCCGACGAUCAAGUCCUGUGCUACACAUCGUAUGUACCGAAUCGGGGUUUUGGGGUUUUGGUUUUGGAAAGUAUUAUGUUACGCCGUUCGGAUCUGCACUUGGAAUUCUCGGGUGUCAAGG,-1.84
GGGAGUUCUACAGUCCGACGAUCUCCCGACAUCUGUGGCCCUGGCACCAAGAAGGUUCAUGUCAUCUUCAACUACAAGGGCAAGAACGUGCUGAUCAACAAGGACAUCCGUUGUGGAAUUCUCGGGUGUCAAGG,-0.151
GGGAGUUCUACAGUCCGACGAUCCCUGUGCUACACAUCGUAUGUACCGAAUCGGGUUUUUUGGUUUUUUGGGGUUUUUUGGGGAAAGUAUUAUGUUACGCCGUUCGGAUCUGCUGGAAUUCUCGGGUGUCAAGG,-1.51
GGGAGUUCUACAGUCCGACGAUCCACAGAUAACACGCACCCACACAGACACAGAGGGAAGGGGUUGGGAUGGGGACAGGGUGCACAGCAGGGCGGGGUAGGACCCCAGCCCCUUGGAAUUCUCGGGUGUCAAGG,0.596
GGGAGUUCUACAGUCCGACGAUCAGUCCUGUGCUACACAUCGUAUGUACCGAAUCGGGGAAAAAGGGGUGGGGUUUGGGGAAAGUAUUAUGUUACGCCGUUCGGAUCUGCACUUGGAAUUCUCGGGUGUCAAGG,-1.09

# Other studies, line by line
Substance,target,test,test system,conditions,scale,quantity,value
"PhoQ, residues 284 288 289 292 302 303 SQSLSM","PhoP, residues 12 14 15 18 19 VQALL (Escherichia coli, UniProt P23836)","Sort-seq, measured: YFP reporter",E. coli,"PhoQ-PhoP variant library, added: 10 µM Mg2+","relative to: high Mg2+ state, higher = stronger signaling",fold induction,12.1

# Repeated from above (set 2):
Oligonucleotide,E-score
CACGCAGG,-0.0997
ACTGCGAC,-0.159
CAAATTAC,0.177
